Measured values from different studies.
Numbered parts are unrelated; each lists some results of a single study. Substitutions count along the parent as printed.

Sample 1 — cell line: HEK-293T; observed: pseudovirus infection; method: FDA-approved drug library counter-screen; organism: VSV pseudotyped with VSV-G; tested at: 10 µM; time: 16 h; relative to: vehicle-treated
| Structure (SMILES) | GFP-positive cells [%] |
| --- | --- |
| Cc1ccc(N(CC2=NCCN2)c2cccc(O)c2)cc1 | 104 |
| CC(C)NCC(O)c1ccc(NS(C)(=O)=O)cc1 (stereo not drawn) | 118 |
| COCCOC(=O)C1=C(C)NC(C)=C(C(=O)OC(C)C)C1c1cccc([N+](=O)[O-])c1 (stereo not drawn) | 71.1 |
| NC(=O)OCC(COC(N)=O)c1ccccc1 | 105 |
| CN(C)CCC=C1c2ccccc2CCc2ccccc21 | 106 |

Sample 2 — method: universal PBM; form: double-stranded DNA, one strand shown; medium: in vitro; tested at: 600 nM; reading: higher = stronger binding
Target: Sal-like protein 4, full length isoform A (SALL4, Homo sapiens, UniProt Q9UJQ4, residues 1-1053)
Chain of UniProt Q9UJQ4 (whole entry, looked up): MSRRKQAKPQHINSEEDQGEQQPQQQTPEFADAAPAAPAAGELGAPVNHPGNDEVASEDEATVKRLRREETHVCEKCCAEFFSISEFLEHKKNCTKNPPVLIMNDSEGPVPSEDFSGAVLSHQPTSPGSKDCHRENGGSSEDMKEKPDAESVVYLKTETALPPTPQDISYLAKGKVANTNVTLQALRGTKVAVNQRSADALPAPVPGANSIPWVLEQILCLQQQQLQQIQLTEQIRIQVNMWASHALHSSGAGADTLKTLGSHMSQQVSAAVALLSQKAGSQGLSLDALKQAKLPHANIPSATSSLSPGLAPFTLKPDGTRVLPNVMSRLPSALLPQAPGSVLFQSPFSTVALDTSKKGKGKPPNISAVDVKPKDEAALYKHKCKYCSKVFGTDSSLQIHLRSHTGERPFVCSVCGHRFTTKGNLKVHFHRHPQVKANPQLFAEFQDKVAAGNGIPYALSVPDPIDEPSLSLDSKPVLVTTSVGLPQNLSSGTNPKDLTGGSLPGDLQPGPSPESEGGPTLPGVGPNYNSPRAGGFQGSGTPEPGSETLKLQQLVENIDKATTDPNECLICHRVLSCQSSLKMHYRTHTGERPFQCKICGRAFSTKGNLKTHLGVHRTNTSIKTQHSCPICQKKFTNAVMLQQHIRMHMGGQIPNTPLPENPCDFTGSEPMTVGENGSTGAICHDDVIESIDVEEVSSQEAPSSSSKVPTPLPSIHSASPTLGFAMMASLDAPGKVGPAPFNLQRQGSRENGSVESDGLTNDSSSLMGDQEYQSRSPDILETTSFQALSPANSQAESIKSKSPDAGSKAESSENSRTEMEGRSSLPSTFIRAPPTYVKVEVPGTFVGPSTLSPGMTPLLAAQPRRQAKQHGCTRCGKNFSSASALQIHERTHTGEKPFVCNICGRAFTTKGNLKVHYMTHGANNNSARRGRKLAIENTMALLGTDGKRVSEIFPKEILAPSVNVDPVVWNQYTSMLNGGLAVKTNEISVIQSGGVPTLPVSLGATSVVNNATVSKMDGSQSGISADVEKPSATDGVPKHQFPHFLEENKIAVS
Notes: 8-mer, flanks averaged, mean of replicates
| Sequence | E-score |
| --- | --- |
| AGATGAAT | 0.211 |
| CATACGAA | 0.15 |
| GCAAGTCC | -0.238 |
| GGATAGAA | 0.206 |
| ACAACTCC | -0.0778 |
| AAGGAGCA | -0.0406 |
| AACCCCGG | -0.375 |
| AGAACAGA | 0.0722 |

Sample 3 — method: competition protein-binding microarray; form: double-stranded DNA, one strand shown; medium: in vitro; tested at: 2 µM; with: Pho4 competitor, 0.05 µM; reading: higher = stronger binding; shared flanks, not repeated: … GTCTTGATTCGCTTGACGCTGCTG
Target: Centromere-binding protein 1, full length, His-tagged (CBF1, Saccharomyces cerevisiae, UniProt P17106, residues 1-351)
Chain of UniProt P17106 (whole entry, looked up): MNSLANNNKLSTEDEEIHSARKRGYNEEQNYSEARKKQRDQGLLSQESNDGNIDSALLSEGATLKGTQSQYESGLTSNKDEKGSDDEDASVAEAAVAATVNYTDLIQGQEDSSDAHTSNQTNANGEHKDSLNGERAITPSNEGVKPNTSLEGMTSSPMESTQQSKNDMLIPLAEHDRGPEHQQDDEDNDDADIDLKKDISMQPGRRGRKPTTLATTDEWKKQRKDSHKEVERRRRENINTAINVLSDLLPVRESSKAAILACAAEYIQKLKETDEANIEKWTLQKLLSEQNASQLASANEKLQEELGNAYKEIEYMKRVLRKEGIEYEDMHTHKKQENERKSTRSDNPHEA
Notes: whole 60-bp probe, lowest competitor level
| Sequence | fluorescence intensity [a.u.] |
| --- | --- |
| AAATTACTAAGTTTTCACGTGCGCTACCCCGTATGA | 1010 |
| AGCACCCTGGTATTTCTCGTGATGGTCTGCCCTTCA | 96.6 |
| TGCGCAACAACTTGGTCAGTGGGTGTATGTCTAGAA | 71.6 |
| CGTCCTAGCGATTGAACAGTGGGTGCCATGAGGAAG | 84.5 |
| CTAACGAAGGTTTGTGATGTGGGTGACAAGCCAAGT | 75.5 |
| ATGGGCTCGAAAAATCTCGTGCCAGTGTAGACTCCC | 133 |
| AAAGCGGTAATTTGTCACGTGACTTCACATATCTAT | 30000 |
| CTTTCCCGATCTTGGTTAGTGGGTGTAGCACATTTG | 91.6 |

Sample 4 — target: CCNB3, cyclin fold, Cln2 fusion (human); method: yeast growth competition, sequencing; medium: yeast; notes: strong parent motif; relative to: not given; reading: higher = stronger binding
Parent: viral docking peptide; YKVKRRLVFGADD; partner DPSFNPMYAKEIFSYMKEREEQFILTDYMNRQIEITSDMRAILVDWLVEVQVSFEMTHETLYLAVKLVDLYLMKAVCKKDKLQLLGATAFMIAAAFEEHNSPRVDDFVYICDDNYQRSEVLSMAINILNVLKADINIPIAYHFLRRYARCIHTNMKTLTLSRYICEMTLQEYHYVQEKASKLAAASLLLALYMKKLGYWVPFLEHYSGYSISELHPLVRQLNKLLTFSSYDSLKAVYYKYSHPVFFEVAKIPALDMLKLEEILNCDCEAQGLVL
| Change | normalised enrichment score |
| --- | --- |
| YKVKRRLVFGYDD [A11Y] | 1.55 |
| YKVKRRLVFGAED [D12E] | 1.72 |
| YKVKRRLVIGADD [F9I] | 0.355 |
| YKVKRRLVFGARD [D12R] | 1.05 |
| YKVKRRLVFEADD [G10E] | 2.6 |
| YKVKIRLVFGADD [R5I] | 0.617 |
| YKVTRRLVFGADD [K4T] | 0.272 |
| YKVARRLVFGADD [K4A] | 0.646 |
| YKFKRRLVFGADD [V3F] | 0.834 |
| YKVKRRLVFLADD [G10L] | 1.09 |
| YKVKRRLVFSADD [G10S] | 1.74 |
| YKVKRRLVQGADD [F9Q] | -0.0697 |
| YKVKTRLVFGADD [R5T] | 0.281 |
| YKVKRRLVFVADD [G10V] | 1.53 |
| YKVKRRLVFKADD [G10K] | 1.3 |
| YCVKRRLVFGADD [K2C] | 2.38 |
| YKVKRRLVFGMDD [A11M] | 1.77 |
| YKVVRRLVFGADD [K4V] | 0.696 |
| YKVKRRFVFGADD [L7F] | 0.362 |
| YEVKRRLVFGADD [K2E] | 2.15 |
| YYVKRRLVFGADD [K2Y] | 1.81 |
| YKVKRRDVFGADD [L7D] | 0.0321 |
| YKVKRRLVFGFDD [A11F] | 1.73 |
| YKCKRRLVFGADD [V3C] | 2.14 |
| YKVKRRLVFGAAD [D12A] | 1.46 |

Sample 5 — observed: peptide-MHC binding; form: peptide; tested at: concentration not given
Target: HLA class I histocompatibility antigen, A alpha chain, allele A*80:01 (Homo sapiens, UniProt P04439)
| Sequence | binding |
| --- | --- |
| HFIYHKREK | inactive |
| YDRLASTVI | inactive |
| HVTQHWPQL | inactive |

Sample 6 — target: CEBPA, bZIP domain (human); method: DHFR protein complementation; medium: yeast; relative to: wild-type JUN-FOS pair; reading: higher = stronger binding
Notes: single substitutions, most at no-binding floor
Parent: JUN, bZIP domain (human); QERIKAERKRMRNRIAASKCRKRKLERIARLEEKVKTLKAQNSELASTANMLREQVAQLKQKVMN; partner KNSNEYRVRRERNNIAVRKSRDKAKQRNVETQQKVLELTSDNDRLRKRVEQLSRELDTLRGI
| Change | binding fitness |
| --- | --- |
| V35P | -1.48 natural log |
| L59A | -1.45 natural log |
| V35L | -1.44 natural log |
| E32L | -1.46 natural log |
| L52H | -1.49 natural log |
| A46I | -1.31 natural log |
| I28C | -1.37 natural log |
| R30V | -1.4 natural log |

Repeated from above (sample 6):
| Change | binding fitness |
| --- | --- |
| L59A | -1.45 natural log |
| R30V | -1.4 natural log |
| I28C | -1.37 natural log |
| L52H | -1.49 natural log |
| A46I | -1.31 natural log |
| V35P | -1.48 natural log |
| E32L | -1.46 natural log |
| V35L | -1.44 natural log |
